Assay results from different studies.
Protocols differ between the studies behind these lines. Several values in a cell are separate wells, animals, samples, runs or records. ± gives the spread as reported.
U2AF2: U2AF2 148-342 (Homo sapiens, UniProt P26368)
UniProt P26368, sequence (whole entry, looked up): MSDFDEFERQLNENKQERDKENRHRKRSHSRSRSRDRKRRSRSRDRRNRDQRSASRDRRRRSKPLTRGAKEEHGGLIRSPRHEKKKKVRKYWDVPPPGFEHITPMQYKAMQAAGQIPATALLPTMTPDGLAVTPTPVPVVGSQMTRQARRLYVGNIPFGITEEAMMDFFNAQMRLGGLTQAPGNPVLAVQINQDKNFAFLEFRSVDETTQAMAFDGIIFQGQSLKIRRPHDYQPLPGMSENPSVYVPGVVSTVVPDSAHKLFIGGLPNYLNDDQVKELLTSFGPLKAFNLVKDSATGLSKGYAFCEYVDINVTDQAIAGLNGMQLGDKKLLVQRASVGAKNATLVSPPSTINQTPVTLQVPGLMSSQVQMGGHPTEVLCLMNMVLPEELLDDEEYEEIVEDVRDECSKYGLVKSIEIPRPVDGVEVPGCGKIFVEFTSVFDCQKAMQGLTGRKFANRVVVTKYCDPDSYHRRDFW
B1: human hnRNP L; sequence looked up; chain MSRRLLPRAEKRRRRLEQRQQPDEQRRRSGAMVKMAAAGGGGGGGRYYGGGSEGGRAPKRLKTDNAGDQHGGGGGGGGGAGAAGGGGGGENYDDPHKTPASPVVHIRGLIDGVVEADLVEALQEFGPISYVVVMPKKRQALVEFEDVLGACNAVNYAADNQIYIAGHPAFVNYSTSQKISRPGDSDDSRSVNSVLLFTILNPIYSITTDVLYTICNPCGPVQRIVIFRKNGVQAMVEFDSVQSAQRAKASLNGADIYSGCCTLKIEYAKPTRLNVFKNDQDTWDYTNPNLSGQGDPGSNPNKRQRQPPLLGDHPAEYGGPHGGYHSHYHDEGYGPPPPHYEGRRMGPPVGGHRRGPSRYGPQYGHPPPPPPPPEYGPHADSPVLMVYGLDQSKMNCDRVFNVFCLYGNVEKVKFMKSKPGAAMVEMADGYAVDRAITHLNNNFMFGQKLNVCVSKQPAIMPGQSYGLEDGSCSYKDFSESRNNRFSTPEQAAKNRIQHPSNVLHFFNAPLEVTEENFFEICDELGVKRPSSVKVFSGKSERSSSGLLEWESKSDALETLGFLNHYQMKNPNGPYPYTLKLCFSTAQHAS
B2: Ras suppressor protein 1 (human); sequence looked up; chain SKSLKKLVEESREKNQPEVDMSDRGISNMLDVNGLFTLSHITQLVLSHNKLTMVPPNIAELKNLEVLNFFNNQIEELPTQISSLQKLKHLNLGMNRLNTLPRGFGSLPALEVLDLTYNNLSENSLPGNFFYLTTLRALYLSDNDFEILPPDIGKLTKLQILSLRDNDLISLPKEIGELTQLKELHIQGNRLTVLPPELGNLDLTGQKQVFKAENNPWVTPIADQFQLGVSHVFEYIRSETYKYLYGRHMQANPEPPKKNNDKSKKISRKPLAAKNR
B3: human AP1G1; sequence looked up; chain MPAPIRLRELIRTIRTARTQAEEREMIQKECAAIRSSFREEDNTYRCRNVAKLLYMHMLGYPAHFGQLECLKLIASQKFTDKRIGYLGAMLLLDERQDVHLLMTNCIKNDLNHSTQFVQGLALCTLGCMGSSEMCRDLAGEVEKLLKTSNSYLRKKAALCAVHVIRKVPELMEMFLPATKNLLNEKNHGVLHTSVVLLTEMCERSPDMLAHFRKLVPQLVRILKNLIMSGYSPEHDVSGISDPFLQVRILRLLRILGRNDDDSSEAMNDILAQVATNTETSKNVGNAILYETVLTIMDIKSESGLRVLAINILGRFLLNNDKNIRYVALTSLLKTVQTDHNAVQRHRSTIVDCLKDLDVSIKRRAMELSFALVNGNNIRGMMKELLYFLDSCEPEFKADCASGIFLAAEKYAPSKRWHIDTIMRVLTTAGSYVRDDAVPNLIQLITNSVEMHAYTVQRLYKAILGDYSQQPLVQVAAWCIGEYGDLLVSGQCEEEEPIQVTEDEVLDILESVLISNMSTSVTRGYALTAIMKLSTRFTCTVNRIKKVVSIYGSSIDVELQQRAVEYNALFKKYDHMRSALLERMPVMEKVTTNGPTEIVQTNGETEPAPLETKPPPSGPQPTSQANDLLDLLGGNDITPVIPTAPTSKPSSAGGELLDLLGDINLTGAPAAAPAPASVPQISQPPFLLDGLSSQPLFNDIAAGIPSITAYSKNGLKIEFTFERSNTNPSVTVITIQASNSTELDMTDFVFQAAVPKTFQLQLLSPSSSIVPAFNTGTITQVIKVLNPQKQQLRMRIKLTYNHKGSAMQDLAEVNNFPPQSWQ
B4: peripherin, human; sequence looked up; chain MSHHPSGLRAGFSSTSYRRTFGPPPSLSPGAFSYSSSSRFSSSRLLGSASPSSSVRLGSFRSPRAGAGALLRLPSERLDFSMAEALNQEFLATRSNEKQELQELNDRFANFIEKVRFLEQQNAALRGELSQARGQEPARADQLCQQELRELRRELELLGRERDRVQVERDGLAEDLAALKQRLEEETRKREDAEHNLVLFRKDVDDATLSRLELERKIESLMDEIEFLKKLHEEELRDLQVSVESQQVQQVEVEATVKPELTAALRDIRAQYESIAAKNLQEAEEWYKSKYADLSDAANRNHEALRQAKQEMNESRRQIQSLTCEVDGLRGTNEALLRQLRELEEQFALEAGGYQAGAARLEEELRQLKEEMARHLREYQELLNVKMALDIEIATYRKLLEGEESRISVPVHSFASLNIKTTVPEVEPPQDSHSRKTVLIKTIETRNGEVVTESQKEQRSELDKSSAHSY
B5: human histone deacetylase 6; sequence looked up; chain MTSTGQDSTTTRQRRSRQNPQSPPQDSSVTSKRNIKKGAVPRSIPNLAEVKKKGKMKKLGQAMEEDLIVGLQGMDLNLEAEALAGTGLVLDEQLNEFHCLWDDSFPEGPERLHAIKEQLIQEGLLDRCVSFQARFAEKEELMLVHSLEYIDLMETTQYMNEGELRVLADTYDSVYLHPNSYSCACLASGSVLRLVDAVLGAEIRNGMAIIRPPGHHAQHSLMDGYCMFNHVAVAARYAQQKHRIRRVLIVDWDVHHGQGTQFTFDQDPSVLYFSIHRYEQGRFWPHLKASNWSTTGFGQGQGYTINVPWNQVGMRDADYIAAFLHVLLPVALEFQPQLVLVAAGFDALQGDPKGEMAATPAGFAQLTHLLMGLAGGKLILSLEGGYNLRALAEGVSASLHTLLGDPCPMLESPGAPCRSAQASVSCALEALEPFWEVLVRSTETVERDNMEEDNVEESEEEGPWEPPVLPILTWPVLQSRTGLVYDQNMMNHCNLWDSHHPEVPQRILRIMCRLEELGLAGRCLTLTPRPATEAELLTCHSAEYVGHLRATEKMKTRELHRESSNFDSIYICPSTFACAQLATGAACRLVEAVLSGEVLNGAAVVRPPGHHAEQDAACGFCFFNSVAVAARHAQTISGHALRILIVDWDVHHGNGTQHMFEDDPSVLYVSLHRYDHGTFFPMGDEGASSQIGRAAGTGFTVNVAWNGPRMGDADYLAAWHRLVLPIAYEFNPELVLVSAGFDAARGDPLGGCQVSPEGYAHLTHLLMGLASGRIILILEGGYNLTSISESMAACTRSLLGDPPPLLTLPRPPLSGALASITETIQVHRRYWRSLRVMKVEDREGPSSSKLVTKKAPQPAKPRLAERMTTREKKVLEAGMGKVTSASFGEESTPGQTNSETAVVALTQDQPSEAATGGATLAQTISEAAIGGAMLGQTTSEEAVGGATPDQTTSEETVGGAILDQTTSEDAVGGATLGQTTSEEAVGGATLAQTTSEAAMEGATLDQTTSEEAPGGTELIQTPLASSTDHQTPPTSPVQGTTPQISPSTLIGSLRTLELGSESQGASESQAPGEENLLGEAAGGQDMADSMLMQGSRGLTDQAIFYAVTPLPWCPHLVAVCPIPAAGLDVTQPCGDCGTIQENWVCLSCYQVYCGRYINGHMLQHHGNSGHPLVLSYIDLSAWCYYCQAYVHHQALLDVKNIAHQNKFGEDMPHPH

Substance	target or system	assay	test system	setting	scale	quantity	value
Peginesatide	UT7/EPO	tyrosine phosphorylation, LC-MS/MS phosphoproteomics, trypsin, refers to: CBL tyrosine 700	–	10 nM, 15 min, added: 10 U/mL EPO	baseline: vehicle	phosphorylation level	8.1 fold
PFVYLIRFHRFHRFHGGGSSSQLSRP	HEK293T	mRNA delivery, refers to: mCherry	peptide	concentration not given	–	transfection efficiency	~90%
B1 (human hnRNP L)	CYB5R4 knockout human cells	PP4 interaction, 3xFLAG-PP4C IP-MS	–	concentration not given	baseline: CYB5R4 KO over parental	log2 fold change	-0.73
Pam2CSK4	BV-2	Western blot, refers to: MARCO	–	concentration not given, unit not given	baseline: control	protein level	3.24 and 4.28 and 2.89
UAUCUUGUA (ssRNA)	U2AF2	sequencing of bound RNA	RNA	motif only	–	Kd	12.5 µM
B2 (Ras suppressor protein 1)	CYB5R4 knockout human cells	PP4 interaction, 3xFLAG-PP4C IP-MS	–	concentration not given	baseline: CYB5R4 KO over parental	log2 fold change	-1.29
EVDPLGLEY	Jurkat expressing engineered TCR	NFAT-eGFP reporter, fluorescence microscopy	peptide	concentration not given, HLA-A*01:01 on EL4 cells	–	GFP-positive cells	12.9%
B3 (human AP1G1)	CYB5R4 knockout human cells	PP4 interaction, 3xFLAG-PP4C IP-MS	–	concentration not given	baseline: CYB5R4 KO over parental	log2 fold change	-0.55
ESDPIEDEY	Jurkat NFAT-eGFP expressing engineered TCR	NFAT reporter gene	peptide	concentration not given, HLA-A*01:01 presentation	–	GFP-positive cells	9.05%
epoetin alfa	UT7/EPO	microarray, refers to: PMP22 mRNA (probe set 243050_at)	–	5 U/mL, 90 min	baseline: vehicle	mRNA level	2.8 fold
GUUUUUCAG (ssRNA)	U2AF2	sequencing of bound RNA	RNA	motif only	–	Kd	4.7 µM
QSDPIESEY	Jurkat NFAT-eGFP expressing engineered TCR	NFAT reporter gene	peptide	concentration not given, HLA-A*01:01 presentation	–	GFP-positive cells	6.21%
MTVCNASQRQAHAQATAVSL	MCF7	phage binding	peptide	–	baseline: targeting over control phage	selectivity ratio	50 ± 15
EIEPIGFEY	Jurkat expressing engineered TCR	NFAT-eGFP reporter, fluorescence microscopy	peptide	concentration not given, HLA-A*01:01 on EL4 cells	–	GFP-positive cells	0.342%
B4 (peripherin, human)	CYB5R4 knockout human cells	PP6 interaction, 3xFLAG-PP6C IP-MS	–	concentration not given	baseline: CYB5R4 KO over parental	log2 fold change	-0.62
YVDPIPLGF	Jurkat expressing engineered TCR	NFAT-eGFP reporter, fluorescence microscopy	peptide	concentration not given, HLA-A*01:01 on EL4 cells	–	GFP-positive cells	0.59%
B5 (human histone deacetylase 6)	CYB5R4 knockout human cells	PP4 interaction, 3xFLAG-PP4C IP-MS	–	concentration not given	baseline: CYB5R4 KO over parental	log2 fold change	-0.08

For quick reference, copied from above:
Substance	target or system	assay	test system	setting	scale	quantity	value
Peginesatide	UT7/EPO	tyrosine phosphorylation, LC-MS/MS phosphoproteomics, trypsin, refers to: CBL tyrosine 700	–	10 nM, 15 min, added: 10 U/mL EPO	baseline: vehicle	phosphorylation level	8.1 fold
